Published values of several laboratories.
Numbered parts are unrelated; each lists some results of a single study. Changes are numbered by the printed parent chain.

Series 1
Target: Histone acetyltransferase KAT6A, winged helix 2, GST fusion (KAT6A, Homo sapiens, UniProt Q92794, residues 85-181)
Technique: protein binding microarray
Form: double-stranded DNA, one strand shown
Matrix: in vitro
Concentration: not given
Setting: 8-mer, flanks averaged, mean of 2 arrays, mostly near background
Baseline: not given
Reading: higher = stronger binding
Target sequence (chain): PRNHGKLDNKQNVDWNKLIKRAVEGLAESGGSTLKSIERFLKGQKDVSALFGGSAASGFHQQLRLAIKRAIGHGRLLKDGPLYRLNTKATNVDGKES
Sequence | E-score
CTGGCAAA | 0.0394
ATTATACA | 0.0242
CGTGCGTC | 0.203
CCATCACC | -0.258
GCGAGGAC | 0.0179
AGGCCCGC | 0.0871
GCACATTA | -0.119
CGCAAGTC | -0.204

Series 2
Target: Transcription factor SOX-2, HMG box (SOX2, Homo sapiens, UniProt P48431, residues 19-118)
Sequence of UniProt P48431 (19-118, looked up): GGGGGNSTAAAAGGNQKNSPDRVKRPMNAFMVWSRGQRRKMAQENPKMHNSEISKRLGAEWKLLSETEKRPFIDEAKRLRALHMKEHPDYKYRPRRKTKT
Technique: protein-binding microarray
Form: double-stranded DNA, one strand shown
Matrix: in vitro
Concentration: not given
Setting: k-mer, scored over probes, only values ≥0.25
Reading: higher = stronger binding
Sequence | E-score
ATTACAA | 0.308
ATCAATA | 0.358
ACAAAGC | 0.309
AATGGGA | 0.253
ATTCATG | 0.444
ATTGTGA | 0.401
ATACAAA | 0.341
GAACAAA | 0.412

Further values, each from its own experiment
P1: PafA, mature enzyme, eGFP fusion (Elizabethkingia meningoseptica, UniProt Q9KJX5); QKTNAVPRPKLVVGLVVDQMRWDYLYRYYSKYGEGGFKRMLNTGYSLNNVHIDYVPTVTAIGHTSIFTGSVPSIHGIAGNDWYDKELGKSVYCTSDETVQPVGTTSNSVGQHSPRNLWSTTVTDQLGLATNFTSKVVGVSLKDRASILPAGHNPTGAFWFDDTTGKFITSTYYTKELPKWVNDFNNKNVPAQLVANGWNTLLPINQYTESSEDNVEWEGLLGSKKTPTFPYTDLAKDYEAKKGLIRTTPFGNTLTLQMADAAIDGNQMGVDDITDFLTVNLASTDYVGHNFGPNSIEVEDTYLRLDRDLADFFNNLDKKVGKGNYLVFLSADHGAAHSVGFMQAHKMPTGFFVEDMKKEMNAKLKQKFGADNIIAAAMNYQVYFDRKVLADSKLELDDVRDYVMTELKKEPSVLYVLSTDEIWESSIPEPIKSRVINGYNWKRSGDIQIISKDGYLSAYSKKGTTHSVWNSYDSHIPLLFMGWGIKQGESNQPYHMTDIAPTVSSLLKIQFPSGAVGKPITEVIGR
Molecule | target or system | assay | test system | setting | scale | quantity | value
CCT3 (Homo sapiens, UniProt P49368) | PDCL3 (Homo sapiens, UniProt Q9H2J4) | cross-linking MS | cell fractions | with: DSSO | – | cross-linked residues | S380 to K214
P1 L47G | vanadate, free oxyanion | microfluidic competitive inhibition | in vitro, cell-free expressed | not given, derived from inhibition constants, unchanged parent 676 nM | lower = stronger binding | oxyanion analog dissociation constant | 812 nM
MYCBP2 (Homo sapiens, UniProt O75592) | PARP1 (Homo sapiens, UniProt P09874) | cross-linking MS | cell fractions | with: DSSO | – | cross-linked residues | S899 to K418
SF3A3 (Homo sapiens, UniProt Q12874) | SF3B2 (Homo sapiens, UniProt Q13435) | cross-linking MS | cell fractions | with: DSSO | – | cross-linked residues | K420 to K514
YLPM1 (Homo sapiens, UniProt P49750) | PABPC4 (Homo sapiens, UniProt Q13310) | cross-linking MS | cell fractions | with: DHSO | – | cross-linked residues | D1887 to E200

Excerpt of the above (series 1):
Sequence | E-score
CCATCACC | -0.258
GCGAGGAC | 0.0179
AGGCCCGC | 0.0871
